Results pooled from the literature.
Each line is one published result; not all experiments were run side by side. Several values in a cell are separate wells, animals, samples, runs or records.
B1: human Nup88; sequence looked up; chain AAAEGPVGDGELWQTWLPNHVVFLRLREGLKNQSPTEAEKPASSSLPSSPPPQLLTRNVVFGLGGELFLWDGEDSSFLVVRLRGPSGGGEEPALSQYQRLLCINPPLFEIYQVLLSPTQHHVALIGIKGLMVLELPKRWGKNSEFEGGKSTVNCSTTPVAERFFTSSTSLTLKHAAWYPSEILDPHVVLLTSDNVIRIYSLREPQTPTNVIILSEAEEESLVLNKGRAYTASLGETAVAFDFGPLAAVPKTLFGQNGKDEVVAYPLYILYENGETFLTYISLLHSPGNIGKLLGPLPMHPAAEDNYGYDACAVLCLPCVPNILVIATESGMLYHCVVLEGEEEDDHTSEKSWDSRIDLIPSLYVFECVELELALKLASGEDDPFDSDFSCPVKLHRDPKCPSRYHCTHEAGVHSVGLTWIHKLHKFLGSDEEDKDSLQELSTEQKCFVEHILCTKPLPCRQPAPIRGFWIVPDILGPTMICITSTYECLIWPLLSTVHPASPPLLCTREDVEVAESPLRVLAETPDSFEKHIRSILQRSVANPAFLKASEKDIAPPPEECLQLLSRATQVFREQYILKQDLAKEEIQRRVKLLCDQKKKQLEDLSYCREERKSLREMAERLADKYEEAKEKQEDIMNRMKKLLHSFHSELPVLSDSERDMKKELQLIPDQLRHLGNAIKQVTMKKDYQQQKMEKVLSLPKPTIILSAYQRKCIQSILKEEGEHIREMVKQINDIRNHVNF
B2: human RAB10; sequence looked up; chain MAKKTYDLLFKLLLIGDSGVGKTCVLFRFSDDAFNTTFISTIGIDFKIKTVELQGKKIKLQIWDTAGQERFHTITTSYYRGAMGIMLVYDITNGKSFENISKWLRNIDEHANEDVERMLLGNKCDMDDKRVVPKGKGEQIAREHGIRFFETSAKANINIEKAFLTLAEDILRKTPVKEPNSENVDISSGGGVTGWKSKCC

| Substance | target or system | test | test system | conditions | how to read | quantity | result |
| --- | --- | --- | --- | --- | --- | --- | --- |
| tigecycline | Klebsiella pneumoniae | broth microdilution | ATCC 700603 | without peptide | – | MIC | 0.63 µM |
| B1 (human Nup88) | U2OS CYB5R4 knock-out | phosphoproteomics | – | concentration not given, together with: cisplatin | baseline: cisplatin-treated parental U2OS | phosphorylation log2 fold change | 7.82 |
| gentamicin | Klebsiella pneumoniae | broth microdilution | ATCC 43816 ΔacrAB, cation-adjusted MHB | – | – | MIC | < 0.5 mg/L |
| colistin | Klebsiella pneumoniae | – | NCTC 13424 | – | baseline: 5% CO2 over ambient air | MIC fold shift | 2 |
| Polymyxin B | Klebsiella pneumoniae | – | ATCC 43863 | concentration not given | – | NADH level | 4.44 pmol/µL and 4.81 pmol/µL and 4.8 pmol/µL |
| colistin trifluoroacetate | Klebsiella pneumoniae | broth microdilution | ATCC 13883 | – | – | MIC | 0.5 mg/L |
| B2 (human RAB10) | CYB5R4 knockout human cells | PP4 interaction, 3xFLAG-PP4C IP-MS | – | concentration not given | baseline: CYB5R4 KO over parental | log2 fold change | -0.13 |
| colistin | Klebsiella pneumoniae | – | 9908, RPMI 1640 10% FBS | 18 to 24 h, 37 °C | – | MIC | 18.2 µM |
| ramoplanin | Klebsiella pneumoniae | broth microdilution | ATCC 700603 | without peptide | – | MIC | 640 µM |
| colistin | Klebsiella pneumoniae | broth microdilution | clinical isolate RKI-No_229/15 | – | – | MIC | ≤ 0.5 mg/L |
| colistin | Klebsiella pneumoniae | broth microdilution | ATCC 13883 | susceptible reference strain | – | MIC | 0.25 mg/L |

Repeated from above:
| Substance | target or system | test | test system | conditions | how to read | quantity | result |
| --- | --- | --- | --- | --- | --- | --- | --- |
| Polymyxin B | Klebsiella pneumoniae | – | ATCC 43863 | concentration not given | – | NADH level | 4.44 pmol/µL and 4.81 pmol/µL and 4.8 pmol/µL |
